Experimental data pooled from the literature.
Each numbered part is a random draw from the data of one study; scales do not carry over between parts. Positions count from the first letter of the parent shown.

Series 1
Target: Ras GTPase-activating protein-binding protein 1, full length (G3BP1, Homo sapiens, UniProt Q13283)
Chain of UniProt Q13283 (whole entry, looked up): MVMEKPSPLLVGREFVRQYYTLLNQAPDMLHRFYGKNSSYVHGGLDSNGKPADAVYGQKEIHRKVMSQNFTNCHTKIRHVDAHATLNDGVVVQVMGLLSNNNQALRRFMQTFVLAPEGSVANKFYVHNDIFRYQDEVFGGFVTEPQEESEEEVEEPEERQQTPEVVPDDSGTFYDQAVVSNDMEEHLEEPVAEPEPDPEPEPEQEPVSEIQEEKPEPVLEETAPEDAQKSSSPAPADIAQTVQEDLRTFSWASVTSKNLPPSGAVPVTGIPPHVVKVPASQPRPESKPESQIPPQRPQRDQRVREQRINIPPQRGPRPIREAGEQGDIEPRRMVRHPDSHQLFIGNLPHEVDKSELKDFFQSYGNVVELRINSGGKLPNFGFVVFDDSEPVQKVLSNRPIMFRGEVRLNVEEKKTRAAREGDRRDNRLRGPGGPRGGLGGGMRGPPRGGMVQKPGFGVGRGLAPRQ
Technique: RNA Bind-n-Seq
Molecule type: RNA
Sample: in vitro
Concentration: 200 nM
Setting: whole 134-nt RNA, ends assumed
Together with: 150 mM LiCl
Baseline: input library
Reading: higher = stronger binding
Library: 7-deaza-guanosine replaces G
Shared flanks, not repeated: GGGAGUUCUACAGUCCGACGAUC … UGGAAUUCUCGGGUGUCAAGG
Strand	log2 enrichment
UAACUUUAGAGGAGGAUCUGAUGGAUAUGGCAGUGGACGUGGAUUUGGGGAUGGCUAUAAUGCGUAUGGAGGAGGACCUGGAGGUGGCAA	0.319
UCAAGUCCUGUGCUACACAUCGUAUGUACCGAAUCGGUGGUUUUUUUGGUUUGGAAAGUAUUAUGUUACGCCGUUCGGAUCUGCACUUCC	-0.565
UGUCUUUCCUGGUGACUAGGAUGUCGUCGGAGGAGGACAAGAGCGUGGAGCAGCCGCAGCCGCCGCCACCACCCCCCGAGGAGCCUGGAG	0.591
CCUCAAGUCCUGUGCUACACAUCGUAUGUACCGAAUCGGGGAGGGAGGGAGGGAAAGUAUUAUGUUACGCCGUUCGGAUCUGCACUUCCA	-0.449
AGUCCUGUGCUACACAUCGUAUGUACCGAAUCAAAUUUUUAAACCCAAACCCCCAAAAAAGUAUUAUGUUACGCCGUUCGGAUCUGCACU	1.15
AGUCCUGUGCUACACAUCGUAUGUACCGAAUCAAACCCAAAUUUAAACCCCCCCAAAAAAGUAUUAUGUUACGCCGUUCGGAUCUGCACU	1.21
UACCUUUAGAGGAGGAUCUGAUGGAUAUGGCAGUGGACGUGGAUUUGGGGAUGGCUAUAAUGGGUAUGGAGGAGGACCUGGAGGUGGCAA	0.174
CACAGACAACACGCACCCACACAGACACAGGGGGAAGGGGUUGGGAUGGGGACAGGGUGCACAGCAGGGCGGGGUAGGACCCCAGCCCCU	-0.14
CUCAAGUCCUGUGCUACACAUCGUAUGUACCGAAUCGGGUUGGGUUGGGGUUGGAAAGUAUUAUGUUACGCCGUUCGGAUCUGCACUUCC	0.337
CAAGUCCUGUGCUACACAUCGUAUGUACCGAAUCGGGCCCGGCCCGGGCCCGGGGAAAGUAUUAUGUUACGCCGUUCGGAUCUGCACUUC	-1.22
CCUGUGCUACACAUCGUAUGUACCGAAUCGGUUUUUUUGGGGUUUUUUUGGUUUUUUUGGAAAGUAUUAUGUUACGCCGUUCGGAUCUGC	0.915

Series 2
Target: CREB3L4, bZIP domain (human)
Technique: DHFR protein complementation
Sample: yeast
Setting: single substitutions, most at no-binding floor
Baseline: wild-type JUN-FOS pair
Reading: higher = stronger binding
Starting sequence: JUN, bZIP domain (human); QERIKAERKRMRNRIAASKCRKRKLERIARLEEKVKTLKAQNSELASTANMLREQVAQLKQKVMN; partner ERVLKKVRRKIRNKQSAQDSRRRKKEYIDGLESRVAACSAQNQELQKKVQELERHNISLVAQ
Substitution	binding fitness
K36H	-1.53 natural log
Q55T	-1.49 natural log
A46T	-1.33 natural log
N42T	-1.44 natural log
S47A	-1.24 natural log
K36A	-1.39 natural log
R30H	-1.06 natural log

Series 3
Target: Interferon regulatory factor 7, full length, phosphomimetic (IRF7, Homo sapiens, UniProt Q92985, residues 1-503, S471D/S472D/S475D/S476D/S477D/S483D/S484D/S487D)
Chain of UniProt Q92985 (whole entry, unmodified, looked up): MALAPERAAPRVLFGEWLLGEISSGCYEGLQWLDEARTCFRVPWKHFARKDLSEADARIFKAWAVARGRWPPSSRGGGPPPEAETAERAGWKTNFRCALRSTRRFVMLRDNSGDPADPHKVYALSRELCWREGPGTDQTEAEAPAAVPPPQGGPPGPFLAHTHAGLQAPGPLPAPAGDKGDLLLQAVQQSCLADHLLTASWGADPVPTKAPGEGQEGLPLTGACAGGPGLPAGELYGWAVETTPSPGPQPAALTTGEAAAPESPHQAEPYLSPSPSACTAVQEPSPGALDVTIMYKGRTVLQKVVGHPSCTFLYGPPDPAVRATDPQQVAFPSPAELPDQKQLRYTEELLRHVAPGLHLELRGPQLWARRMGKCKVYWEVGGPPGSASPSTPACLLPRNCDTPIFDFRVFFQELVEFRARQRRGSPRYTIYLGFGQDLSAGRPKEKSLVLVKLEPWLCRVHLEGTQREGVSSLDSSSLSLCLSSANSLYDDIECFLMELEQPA
Technique: protein-binding microarray
Molecule type: double-stranded DNA, one strand shown
Sample: in vitro
Concentration: 2200 nM top
Setting: 60-bp whole probe
Together with: salmon DNA 0.4 mg/ml
Baseline: random background probes
Reading: higher = stronger binding
Shared flanks, not repeated: GCCTAGCAC … GTCTTGATTCGCTTGACGCTGCTG
Strand	fitted relative affinity [z-score]
TTGGGTTTCGGACTGGGTTAGTGCTAG	2.72
GACGAACTGGTGTTTCGAGACGTGCTA	1.01
TTTTAAAATGGACACTGTACAGTGCTA	-0.778
TTAGGTATCCTACTGATTTAGTGCTAG	0.374
TTAGGTTTCGTTCTCGGTTAGTGCTAG	6.79
TTAGCTTTCAGACTGGATTAGTGCTAG	0.489
GACGGACTGCTACTGCTGGCGTGCTAG	-0.469
TCATTTTTTTTTTTTGGACTGTGCTAG	1.91
GACGGTTTCGGACTGGGGAAGTGCTAG	3.81
GACGGTCTCAGTTTCGAGACGTGCTAG	3.39
TTAGGACTGGACTTTCGGTGAGTGCTA	0.774
GACGGTATCGTTTTCGGGACGTGCTAG	3.48
GACGATATCGGGTAGCGAGACGTGCTA	-0.25
TTAGGTTTCGGGTATCCGTTAGTGCTA	6.07
TTAGATCTCAGTTGCGATTAGTGCTAG	0.698
TTAGAACTGAGTTTCGATTCGTGCTAG	8.91
ATCTGCAGCTGACTACACACGTGCTAG	0.766
GGCGGTCTCGGTCTCGGGACGTGCTAG	-0.623
TCATTTATGCACTCTCTAACTGTGCTA	1.44

Further values, each from its own experiment
Substance	target	assay	system	conditions	how to read	endpoint	result
PhoQ, residues 284 288 289 292 302 303 SSLVEF	PhoP, residues 12 14 15 18 19 LWHCS (Escherichia coli, UniProt P23836)	Sort-seq, item: YFP reporter	E. coli	PhoQ-PhoP variant library, together with: 10 µM Mg2+	baseline: high Mg2+ state, higher = stronger signaling	fold induction	3.79

Repeated from above (series 1):
Strand	log2 enrichment
AGUCCUGUGCUACACAUCGUAUGUACCGAAUCAAACCCAAAUUUAAACCCCCCCAAAAAAGUAUUAUGUUACGCCGUUCGGAUCUGCACU	1.21
UACCUUUAGAGGAGGAUCUGAUGGAUAUGGCAGUGGACGUGGAUUUGGGGAUGGCUAUAAUGGGUAUGGAGGAGGACCUGGAGGUGGCAA	0.174
